# Published values pooled from the literature.
# ± marks the error that the study gave.
# OPRK1: Kappa-type opioid receptor (OPRK1, Homo sapiens, UniProt P41145)
Structure (SMILES),target,test,test system,conditions,Ki
Cc1cc(O)cc(C)c1C[C@H](N)C(=O)NCC(=O)NCC(=O)N[C@@H](Cc1ccccc1)C(=O)N[C@H](C(=O)NCC(=O)N[C@@H](C)C(=O)N[C@@H](CCCNC(=N)N)C(=O)N[C@@H](CCCCN)C(=O)N[C@@H](CO)C(=O)N[C@@H](C)C(=O)N[C@@H](CCCNC(=N)N)C(=O)N[C@@H](CCCCN)C(N)=O)[C@@H](C)O,OPRK1,"ligand displacement, radioligand",,cell membranes,0.0417 nM
CC[C@H](C)[C@@H]1NC(=O)[C@H]([C@@H](C)O)NC(=O)[C@H](CCC(=O)O)NC(=O)[C@H](CO)NC(=O)[C@H](Cc2ccc(O)cc2)NC(=O)[C@@H]2CSSC[C@@H]3NC(=O)[C@H]([C@@H](C)CC)NC(=O)[C@@H]4CCCN4C(=O)[C@H](Cc4c[nH]c5ccccc45)NC(=O)[C@H](CCC(=O)O)NC(=O)[C@@H]4CSSC[C@H](NC(=O)[C@H]([C@@H](C)O)NC(=O)[C@H](CCC(=O)O)NC(=O)CNC(=O)[C@H](CSSC[C@H](NC(=O)CNC1=O)C(=O)N[C@@H]([C@@H](C)O)C(=O)N4)NC(=O)[C@@H]1CCCN1C(=O)[C@H](CC(C)C)NC(=O)[C@@H]1CCCN1C(=O)[C@H](CC(=O)O)NC(=O)CNC(=O)[C@H](CC(N)=O)NC(=O)[C@H](CCCCN)NC(=O)[C@H]([C@@H](C)O)NC3=O)C(=O)N[C@@H](Cc1ccccc1)C(=O)N[C@@H]([C@@H](C)O)C(=O)NCC(=O)N[C@@H](CCCCN)C(=O)N2,"CNR2 (Homo sapiens, UniProt P34972)","ligand displacement, radioligand",,cell membranes,1000 nM
CC(C)C[C@H](NC(=O)[C@H](CO[C@@H]1O[C@H](CO)[C@@H](O)[C@H](O)[C@H]1O)NC(=O)[C@H](CCCCN)NC(=O)[C@H](CC(C)C)NC(=O)CNC(=O)[C@H](CCCCN)NC(=O)[C@H](CCC(=O)O)NC(=O)[C@H](C)NC(=O)[C@H](CC(C)C)NC(=O)[C@H](CC(N)=O)NC(=O)[C@@H]1CCCN1C(=O)[C@H](CC(C)C)NC(=O)[C@H](Cc1ccccc1)NC(=O)CNC(=O)[C@H](NC(=O)[C@@H](N)Cc1ccc(O)cc1)[C@H](C)O)C(N)=O,"OPRD1 (Homo sapiens, UniProt P41143)","ligand displacement, radioligand",,"pH 7.5, cell membranes",6.3 nM
CC[C@H](C)[C@@H]1NC(=O)[C@H](CC(=O)O)NC(=O)[C@H]([C@@H](C)O)NC(=O)[C@@H]2CSSC[C@@H]3NC(=O)[C@H](CC(C)C)NC(=O)[C@H](CC(N)=O)NC(=O)[C@H](CC(C)C)NC(=O)[C@H](CCCNC(=N)N)NC(=O)[C@H](C)NC(=O)[C@H](CCCCN)NC(=O)[C@H](CCSC)NC(=O)[C@H](CO)NC(=O)[C@H]([C@@H](C)O)NC(=O)[C@H](CCCNC(=N)N)NC(=O)[C@H](CSSC[C@H](NC(=O)[C@H]([C@@H](C)O)NC(=O)[C@H](CCCCN)NC(=O)[C@H](CCCNC(=N)N)NC3=O)C(=O)NCC(=O)N[C@@H](CO)C(=O)N[C@H](C(=O)O)CSSC[C@H](NC(=O)[C@@H](NC(=O)[C@@H](N)CCCNC(=N)N)[C@@H](C)O)C(=O)N[C@@H](CCCCN)C(=O)N[C@@H](CC(=O)O)C(=O)N[C@@H](CC(C)C)C(=O)N[C@@H]([C@@H](C)CC)C(=O)N3CCC[C@H]3C(=O)N[C@@H](C(C)C)C(=O)N[C@@H](CO)C(=O)N[C@@H](CCC(=O)O)C(=O)N2)NC(=O)[C@H](CCCNC(=N)N)NC1=O,KcsA-Shaker channel,"potassium current, inhibitor, two-electrode voltage clamp",Xenopus oocytes,,162 ± 13 nM
CC(C)C[C@H](NC(=O)[C@H](CO)NC(=O)[C@H](CCCCN)NC(=O)[C@H](CC(C)C)NC(=O)[C@H](C)NC(=O)[C@H](CCCCN)NC(=O)[C@H](CCC(=O)O)NC(=O)C(C)(C)NC(=O)[C@H](CC(C)C)NC(=O)[C@H](CC(N)=O)NC(=O)[C@@H]1CCCN1C(=O)[C@H](CC(C)C)NC(=O)[C@H](Cc1ccccc1)NC(=O)CNC(=O)[C@H](NC(=O)[C@@H](N)Cc1ccc(O)cc1)[C@H](C)O)C(N)=O,OPRK1,"ligand displacement, radioligand",,"pH 7.5, cell membranes",26 nM
CC[C@H](C)[C@H](NC(=O)[C@H](CCCNC(=N)N)NC(=O)[C@H](CCCNC(=N)N)NC(=O)[C@H](CC(C)C)NC(=O)[C@H](Cc1ccccc1)NC(=O)CNC(=O)CNC(=O)[C@@H](N)Cc1ccc(O)cc1)C(=O)N[C@@H](CCCNC(=N)N)C(=O)N1CCC[C@H]1C(=O)N[C@@H](CCCCN)C(=O)O,OPRK1,"ligand displacement, radioligand",,,0.09 nM
CC[C@H](C)[C@H](NC(=O)[C@H](CCCN)NC(=O)[C@H](CC(=O)O)NC(=O)[C@H](CC(C)C)NC(=O)C(C)(CC(C)C)NC(=O)[C@@H](NC(=O)[C@H](CO)NC(=O)[C@H](Cc1ccc(O)cc1)NC(=O)[C@H](CC(=O)O)NC(=O)[C@H](CO)NC(=O)[C@@H](NC(=O)[C@H](Cc1ccccc1)NC(=O)[C@@H](NC(=O)CNC(=O)[C@H](CCC(=O)O)NC(=O)C(C)(C)NC(=O)[C@@H](N)Cc1ccc(O)cc1)[C@@H](C)O)[C@@H](C)CC)[C@@H](C)CC)C(=O)N[C@@H](Cc1c[nH]cn1)C(=O)N[C@@H](CCC(N)=O)C(=O)NC(C)(C)C(=O)N[C@@H](CC(=O)O)C(=O)N[C@@H](Cc1ccccc1)C(=O)N[C@H](C(=O)N[C@@H](CCC(=O)O)C(=O)N[C@@H](Cc1ccc(O)cc1)C(=O)N[C@@H](CCCCNC(=O)COCCOCCNC(=O)COCCOCCNC(=O)CC[C@H](NC(=O)CCCCCCCCCCCCCCCCCCC(=O)O)C(=O)O)C(=O)N[C@@H](CC(C)C)C(=O)N[C@@H](CCC(=O)O)C(=O)NCC(=O)NCC(=O)N1CCC[C@H]1C(=O)N[C@@H](CO)C(=O)N[C@@H](CO)C(=O)NCC(=O)N[C@@H](C)C(=O)N1CCC[C@H]1C(=O)N1CCC[C@H]1C(=O)N1CCC[C@H]1C(=O)N[C@@H](CO)C(N)=O)C(C)C (stereo partly drawn),"GIPR (Homo sapiens, UniProt P48546)",cell-free assay,,,0.104 nM
CC[C@H](C)[C@@H]1NC(=O)[C@@H](NC(=O)[C@H](CO)NC(=O)[C@@H](N)CCCNC(=N)N)CSSC[C@@H](C(=O)O)NC(=O)[C@H]([C@@H](C)O)NC(=O)CNC(=O)[C@@H]2CSSC[C@@H]3NC(=O)[C@H](CCC(N)=O)NC(=O)[C@H](Cc4ccccc4)NC(=O)[C@H](C)NC(=O)[C@H]([C@@H](C)O)NC(=O)[C@H](CSSC[C@H](NC(=O)[C@H](Cc4ccccc4)NC(=O)[C@H](CO)NC(=O)[C@H](CC(C)C)NC(=O)[C@H](CCCNC(=N)N)NC(=O)[C@H](Cc4ccc(O)cc4)NC(=O)[C@H](CCCCN)NC(=O)[C@H](CCSC)NC(=O)[C@H](CO)NC(=O)[C@H](Cc4cnc[nH]4)NC(=O)[C@H](CCCCN)NC3=O)C(=O)N[C@@H](CCCNC(=N)N)C(=O)N[C@@H](CCCCN)C(=O)N[C@@H]([C@@H](C)O)C(=O)N2)NC(=O)[C@H](CCCNC(=N)N)NC(=O)[C@H](CO)NC(=O)[C@H](CCCCN)NC(=O)[C@@H]2CCCN2C(=O)[C@H]([C@@H](C)CC)NC(=O)[C@H]([C@@H](C)O)NC(=O)[C@H](CC(=O)O)NC1=O,"KCNA3 (Homo sapiens, UniProt P22001)","potassium current, inhibitor, two-electrode voltage clamp",Xenopus oocytes,,0.05 ± 0.01 nM
CC(C)C[C@H](NC(=O)[C@H](CO)NC(=O)[C@H](CCCCN)NC(=O)[C@H](CC(C)C)NC(=O)CNC(=O)[C@H](CCCCN)NC(=O)[C@H](CCC(=O)O)NC(=O)[C@H](C)NC(=O)[C@H](CC(C)C)NC(=O)[C@H](CC(N)=O)NC(=O)[C@@H]1CCCN1C(=O)[C@H](CC(C)C)NC(=O)[C@H](Cc1ccccc1)NC(=O)CNC(=O)[C@H](NC(=O)[C@@H](N)Cc1ccc(O)cc1)[C@H](C)O)C(N)=O,"OPRM1 (Homo sapiens, UniProt P35372)",radioligand displacement,CHO membranes,"60 min, pH 7.5, 25 °C, together with: 0.25 nM [3H]DAMGO",13 ± 0.97 nM
